Measured values pooled from the literature.
Numbered parts are unrelated; each lists some results of a single study.

Study 1
Target: Interferon regulatory factor 5, full length, phosphomimetic (IRF5, Homo sapiens, UniProt Q13568-2, residues 1-514, S451D/S453D/S456D/S462D)
Technique: protein-binding microarray
Molecule type: double-stranded DNA, one strand shown
Medium: in vitro
Tested at: 940 nM top
Setting: 60-bp whole probe
Added: salmon DNA 0.4 mg/ml
Baseline: random background probes
Direction: higher = stronger binding
Shared flanks, not repeated: GCCTAGCAC … GTCTTGATTCGCTTGACGCTGCTG
Oligonucleotide | fitted relative affinity [z-score]
GTGCCCGCTGCTTCCGGTGCGTGCTAG | -0.621
GACGTACTGGACACTGGGGACGTGCTA | -0.503
TTCGGACTGGGGACTGGGTTAGTGCTA | -0.181
AACGAACTGAGTATCGAGACGTGCTAG | 1.72
GAAGATGTCAAACTCACTCAGTGCTAG | -0.557
GTGAGAAATAAGTTTCTTTTGTGCTAG | 0.467
TTTTTTTTTTGTATTTTTGAGTGCTAG | 1.42
GATGGTCTCGGTTTCGGGACGTGCTAG | 7.08
TAATTTCCATTTTCTAAATGCGTGCTA | 0.711
CAGTTAATGAAAATTCTAATTGTGCTA | -0.095
GACGGTCTCCTACTGCGGACGTGCTAG | 0.118
ACCCGAGACACCGCCCCTTTGTGCTAG | 0.418
TCACCTTTTATATTGTAACTGTGCTAG | 1.48
TCATGTGTGTGTTTGTGACTGTGCTAG | 0.0382
GACAAACTGAGTCTCGAGACGTGCTAG | 0.882
AATGGAACAAATATGTTTATGTGCTAG | -0.123
GACGGACTGGGGTATGGGGACGTGCTA | -0.226
TTAGGTTTCGGGTTTCGGTTCGTGCTA | 10.8

Study 2
Target: Histone acetyltransferase KAT6A, winged helix 1, GST fusion (KAT6A, Homo sapiens, UniProt Q92794, residues 1-85)
Technique: protein binding microarray
Molecule type: double-stranded DNA, one strand shown
Medium: in vitro
Tested at: not given
Setting: 8-mer, flanks averaged, mean of 2 arrays, mostly near background
Baseline: not given
Direction: higher = stronger binding
Residues (chain): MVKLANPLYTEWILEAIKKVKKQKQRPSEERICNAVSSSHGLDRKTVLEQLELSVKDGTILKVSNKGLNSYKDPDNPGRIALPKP
Oligonucleotide | E-score
ACCGGCAT | 0.319
GTCGACCA | 0.0549
GCCCGTCA | 0.37
CCAATCAG | -0.309
GGGGTATA | -0.0828
ACTGAGCG | 0.162
AATGCAAG | -0.147
AAATGCAT | -0.172
CTGCATTC | -0.231
ACGCGCGA | 0.419
CCTGGTCA | -0.187
TAGCTAGA | -0.171
CCGCTAGC | 0.305
AGTAGTTC | -0.07
CTTACCGC | 0.301
GCTCCCAA | -0.233
ATTGAATA | -0.194
CTCGGCCA | -0.021
AGGGACCA | -0.0539
AAGTTCGT | -0.189
CCATGGTC | -0.0208
GTGCTGGA | -0.125
GGCCGTAA | 0.371
CTCCCGCC | 0.357

Study 3
Target: Centromere-binding protein 1, full length, N-terminal tag (CBF1, Saccharomyces cerevisiae, UniProt P17106, residues 1-351)
Sequence of UniProt P17106 (whole entry, looked up): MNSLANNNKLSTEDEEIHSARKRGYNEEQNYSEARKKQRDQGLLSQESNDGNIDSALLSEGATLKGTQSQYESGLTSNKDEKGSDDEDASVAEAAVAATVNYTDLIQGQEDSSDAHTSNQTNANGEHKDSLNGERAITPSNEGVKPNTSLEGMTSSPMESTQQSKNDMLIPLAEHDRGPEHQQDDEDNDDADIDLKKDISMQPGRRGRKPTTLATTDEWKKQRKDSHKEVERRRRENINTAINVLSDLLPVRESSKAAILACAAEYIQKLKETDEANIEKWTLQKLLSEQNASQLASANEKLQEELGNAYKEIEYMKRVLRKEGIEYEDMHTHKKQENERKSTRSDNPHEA
Technique: protein-binding microarray
Molecule type: double-stranded DNA, one strand shown
Medium: in vitro
Tested at: 0.8 µM
Setting: whole 60-bp probe, no competitor
Direction: higher = stronger binding
Shared flanks, not repeated: … GTCTTGATTCGCTTGACGCTGCTG
Oligonucleotide | fluorescence intensity
GAAAGTACCGGCGGTCACATGGTCTGCGAGATTTAG | 6120 a.u.
GAAATATTATTTATGCACGTTGCTCATTTAATTTAG | 896 a.u.
CTACCGTATAGAAAACGCGTGGCTGGTAGCTTTTTC | 550 a.u.
GAAAAAAATCAAACCCATGTGGTCGTCATCCTCTAG | 632 a.u.
GAACTCGAGAGAAAGCACGTTCCAGGAATCTGCTAG | 683 a.u.
TGTACGAAGCTATACATCGTGGTTATAGTAGTTAGG | 510 a.u.
CTAAGTAATTGCTTACACGTTCTAGAATAAAAATTC | 692 a.u.
CTATACAAGAAAACTATCGTGGGTGAAGCTGCATTC | 524 a.u.
CTACAGTTTTCCTATCTGTCACCTTTCTAGGTCTTC | 562 a.u.
GAAATGTCATTTTAACACGTGTGTTGGATGGGATAG | 4390 a.u.
GAATTTGTATCTTTTGACGTGATCAAAAGTAATTAG | 747 a.u.
GAATTCTCTCCGAGACACGTGCTAATATCTATTTAG | 11100 a.u.
GAAAAAGTTCAAATCCACGTTATTGAGAGTAGATAG | 548 a.u.
CTATTTTTTCTTTCTTGCGTGGTATGTTAGAAGTTC | 560 a.u.
CTAGCCGATAATTTTCACATGGATGAGTCGCAGTTC | 578 a.u.
CTACAACTCGTGTCTCACGAGAGCGCCACTTAATTC | 560 a.u.
CTAGACAATGGAACAAATGTGTCACCAAGGTTGTTC | 500 a.u.
CTAATTTGAGTAGATCTGATGCGCAATGTCTATTTC | 485 a.u.
TGTACGAAGCTATAGCACGATTGTATAGTAGTTAGG | 523 a.u.

Study 4
Target: RNA binding protein fox-1 homolog 2, RRM domain, GST-SBP tag (RBFOX2, Homo sapiens, UniProt O43251-10, residues 100-194)
Technique: RNA Bind-n-Seq
Molecule type: RNA
Medium: in vitro
Tested at: 365 nM
Setting: natural RNA segment, single round, ends assumed
Baseline: no-protein control
Direction: higher = stronger binding
Shared flanks, not repeated: GGGAGUUCUACAGUCCGACGAUC … UGGAAUUCUCGGGUGCCAA
Oligonucleotide | RBNS enrichment (R)
CUGUGUCUCCAGAAAGGGGACAUCGGGGGGGAGGGGGGCUCAGAAAGGAGAAGGGCUGUGAUCUCCGGUCCCUUCCCCCAUCAUCCUUCCUUAGACUGAUGCUUUGACUG | 1.59
GGCCUCGGGCCUGACCCGUCCACACAGGGCCGUGUCAACAGCAGCGACUCAAGGGACGUGUGUACAUAUGUAAAUGAGAAAUAGAGACGUGUCAACAGAUGCAUUCAUUU | 0.517
CUGCCUGCUUUCUCAGAGUCUGGGCAGGCCGAUGGGAACUGUCAUCUCCUUAGGGAUGUGUGUGUUCAGUGCAAAGUAAGAAAUAUGAAAAUAUCCCUGUUCUUAGUUAC | 0.362
CGCCCACCCUCUGCCUGGUCGCGCUCUUCAGUCCCACGAGGAGCUGACACGUCCUCUCUGGCCGCCAUCCGGCUCGCACAGGGGCCUCCCAGCGCCUCAGGCCCCGCGUU | 0.645
GAAGAGACUGCAAAGACACAUGAAGAUUUCUGAUCCUAAAAUGCUGUUUUGUUUACUUCCUGUCAAGAUAUCAACCCCUGUCCAAUUCAAACUAUAGUACUGUGUAAUUA | 0.427
AGACAUUUAUAAGCACUCUAAUGGAUAACAAUCCAAGAAUAAAUGAUUGUAAAAGAUGAUGCCGAAGAGUUGAUGUCAAUCUUUUUUUCCUAAGAAAAAAAGUCCGCGAG | 0.518
UUUGCUCGUCUGUAAUAGUUAUGUAUGAAGGACUCUUAAUUGCAACUGAAAAGGUCGUGUAUAGGUUAGAGAUACAGGGAGCCCAUUUUAUAUUUGCAUACCCUUUUAUU | 2.42
UGGAGACUCUAGCUGGAGCAGUUGGCUCCUAUUGGCUGUGUUUGCCUGUCUGUCUUCCUGUCACGUGGAUCCUUGGUUCUUUCCCGGCCAUUCCAUUCCCAGGGAGUGAG | 1.08

A few entries again (study 2):
Oligonucleotide | E-score
CCAATCAG | -0.309
ACGCGCGA | 0.419
CCGCTAGC | 0.305
TAGCTAGA | -0.171
ACCGGCAT | 0.319
GCCCGTCA | 0.37
AATGCAAG | -0.147
AAATGCAT | -0.172
